{"data": "Results from different studies", "note": "Compare with care: the assays were run in different laboratories. Several values in a cell are separate wells, animals, samples, runs or records. ± marks the error that the study gave."}
{"SMILES": "C/C(=N\\OCCCN1CCCCC1)c1ccc(C(F)(F)F)cc1", "host": "mouse", "medium": "plasma", "route": "oral", "dose": "100 mg/kg twice daily", "time": "day 1", "Cmax": "1670 ± 300 ng/mL"}
{"SMILES": "Cc1sc2c(c1C)C(c1ccc(Cl)cc1)=N[C@@H](CC(=O)OC(C)(C)C)c1nnc(C)n1-2", "host": "CD1 mouse, male", "route": "oral", "dose": "10 mg/kg", "Cmax": "1180 ng/mL"}
{"SMILES": "CC[C@H](C)[C@H](NC(=O)[C@H](CCCN)NC(=O)[C@H](CCCNC(=N)N)NC(=O)[C@@H]1CCCN1C(=O)[C@@H]1CCCN1C(=O)[C@H](CCCNC(=N)N)NC(=O)[C@@H]1CCCN1C(=O)[C@H](CCCNC(=N)N)NC(=O)[C@@H]1CCCN1C(=O)[C@H](CC(C)C)NC(=O)[C@H](Cc1ccc(O)cc1)NC(=O)[C@@H]1CCCN1C(=O)[C@@H]1CCCN1C(=O)[C@H](CCCCN)NC(=O)[C@H](CC(=O)O)NC(=O)[C@@H](N)C(C)C)C(=O)N[C@@H](Cc1ccc(O)cc1)C(=O)N[C@@H](CC(N)=O)C(=O)N[C@@H](CCCN)C(N)=O", "technique": "LC-MS", "host": "mouse CD-1, female", "medium": "plasma", "route": "subcutaneous", "dose": "4.34 µmol/kg", "Cmax": "8700 ± 190 ng/mL"}
{"SMILES": "Cc1cc(Nc2nc(C[C@@]3(C(=O)O)CCN(Cc4cccc(Cl)c4F)[C@H](C)C3)cc(C)c2F)n[nH]1", "host": "mouse, IMR-32 xenograft", "medium": "plasma", "route": "oral", "dose": "10 mg/kg once daily", "Cmax": "14500 ng/mL"}
{"SMILES": "O=C(CN1C(=O)C2(CCN(C(=O)c3ccc4[nH]ncc4n3)CC2)c2c(Br)cccc21)NCC(F)(F)F", "host": "C57BL/6 mouse, male", "medium": "plasma", "route": "oral", "dose": "10 mg/kg", "Cmax": "38.5 ng/mL"}
{"SMILES": "CCOc1ccccc1-n1c(CN2CCNCC2)nc2ccccc2c1=O", "host": "C57BL/6 mouse, male", "medium": "plasma", "route": "intravenous", "dose": "1 mg/kg", "Cmax": "3.79 µM"}
{"SMILES": "O=C(Nc1cccs1)c1cccnc1", "host": "mouse", "medium": "brain", "route": "intravenous", "dose": "5 mg/kg", "Cmax": "2100 ng/g"}
{"SMILES": "CN[C@H](CC(C)C)C(=O)N[C@H]1C(=O)N[C@@H](CC(N)=O)C(=O)N[C@H]2C(=N)N[C@H]3C(=O)N[C@H](C(=O)N[C@H](C(=O)NCCCNC(=N)N)c4cc(O)cc(O)c4-c4cc3ccc4O)[C@H](O)c3ccc(c(Cl)c3)Oc3cc2cc(c3O[C@@H]2O[C@H](CO)[C@@H](O)[C@H](O)[C@H]2O[C@H]2C[C@](C)(NCc3ccc(-c4ccc(Cl)cc4)cc3)[C@H](O)[C@H](C)O2)Oc2ccc(cc2Cl)[C@H]1O", "host": "mouse", "route": "intravenous", "dose": "25 mg/kg", "Cmax": "139000 ng/mL"}
{"SMILES": "O=C(c1cncc2cc[nH]c12)N1CCC(=C2c3ccccc3CS(=O)(=O)c3ccccc32)CC1", "host": "mouse", "route": "oral", "dose": "50 mg/kg", "Cmax": "6070 ng/mL and 6060 ng/mL"}
{"SMILES": "O=C(c1cc(Cc2n[nH]c(=O)c3ccccc23)ccc1F)N1CC(CNC2CC2)C1", "host": "female ICR mouse", "medium": "plasma", "route": "oral", "dose": "60 mg/kg", "Cmax": "4100 ng/mL"}
